Measurements collected from several papers.
A part holds a random share of what one study measured. Changes are numbered by the printed parent chain.

Sample 1
Target: BIRC6 UBC core domain (UniProt Q9NR09)
Method: yeast two-hybrid
Matrix: yeast
Notes: mostly zero background
Relative to: not given
Direction: higher = stronger interaction
B1: TRIM35 RING domain (UniProt Q9UPQ4); chain PSRSFKEELLCAVCYDPFRDAVTLRCGHNFCRGCVSRCWEVQVSPTCPVCKDRASPADLRT
B2: TRIM55 RING domain (UniProt Q9BYV6); chain TMDNLEKQLICPICLEMFTKPVVILPCQHNLCRKCASDIFQASNPYLPTRGGTTMASGGRFRCPSCRHEVVLDRHG
B3: RNF149 RING domain (UniProt Q8NC42); chain EKGIDVDAENCAVCIENFKVKDIIRILPCKHIFHRICIDPWLLDHRTCPMCKLDVIKALGYW
B4: NSMCE1 RING domain (UniProt Q8WV22); chain RETYPDAVKICNICHSLLIQGQSCETCGIRMHLPCVAKYFQSNAEPRCPHCNDYWPHEIPKV
B5: MSL2 RING domain (UniProt Q9HCI7); chain LLPYFRQSLSCCVCGHLLQDPIAPTNSTCQHYVCKTCKGKKMMMKPSCSWCKDYEQFEENKQ
B6: RNF5 RING domain (UniProt Q99942); chain ERGGAGATFECNICLETAREAVVSVCGHLYCWPCLHQWLETRPERQECPVCKAGISREKVVP
B7: RNF43 RING domain (UniProt Q68DV7); chain SGSSCSSAPVCAICLEEFSEGQELRVISCLHEFHRNCVDPWLHQHRTCPLCMFNITEGDSFS
B8: TRIM15 RING domain (UniProt Q9C019); chain SLKVVHELPACTLCAGPLEDAVTIPCGHTFCRLCLPALSQMGAQSSGKILLCPLCQEEEQAETPMA
B9: RFPL2 RING domain (UniProt O75678); chain MAALFQEASSCPVCSDYLEKPMSLECGCAVCLKCINSLQKEPHGEDLLCCCSSMVSRKNKIRR
Target sequence (chain): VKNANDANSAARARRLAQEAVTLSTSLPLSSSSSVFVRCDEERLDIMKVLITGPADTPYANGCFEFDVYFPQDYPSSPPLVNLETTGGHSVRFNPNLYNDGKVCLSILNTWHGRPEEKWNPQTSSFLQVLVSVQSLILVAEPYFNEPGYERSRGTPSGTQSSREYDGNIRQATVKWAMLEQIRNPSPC
Sequence	lacZ reporter activity
B1 (TRIM35 RING domain)	0
KIKDLNEHIVCCLCAGYFVDATTITECLHTFCKSCIVKYLQTSKYCPMCNIKIHETQPLL (PCGF1 RING domain (UniProt Q9BSM1))	0
B2 (TRIM55 RING domain)	0
KRQCSDVDDICSICQAEFQKPILLICQHIFCEECMTLWFNREKTCPLCRTVISDHINKW (RNFT1 RING domain (UniProt Q5M7Z0))	0
SYEDKSNDFVCPICFDMIEEAYMTKCGHSFCYKCIHQSLEDNNRCPKCNYVVDNIDHLY (COP1 RING domain (UniProt Q8NHY2))	0
B3 (RNF149 RING domain)	0
B4 (NSMCE1 RING domain)	0
B5 (MSL2 RING domain)	0
B6 (RNF5 RING domain)	0
B7 (RNF43 RING domain)	0
B8 (TRIM15 RING domain)	0
B9 (RFPL2 RING domain)	0
MANWVFCNRCFQPPHRTSCFSLTNCGHVYCDACLGKGKKNECLICKAPCRTVLLSK (RNF212 RING domain (UniProt Q495C1))	0
FLKKLEQSFMCVCCQELVYQPVTTECFHNVCKDCLQRSFKAQVFSCPACRHDLGQNYIMI (UHRF2 RING domain (UniProt Q96PU4))	0

Sample 2
Target: FOSB, bZIP domain (human)
Method: DHFR protein complementation
Matrix: yeast
Notes: single substitutions, most at no-binding floor
Relative to: wild-type JUN-FOS pair
Direction: higher = stronger binding
Starting sequence: JUN, bZIP domain (human); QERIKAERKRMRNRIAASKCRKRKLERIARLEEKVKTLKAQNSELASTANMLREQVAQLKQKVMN; partner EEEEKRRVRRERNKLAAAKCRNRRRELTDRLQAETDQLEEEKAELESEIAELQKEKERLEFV
Substitution	binding fitness [natural log]
K39G	-0.719
E33D	-0.148
L31G	-0.852
M51S	-0.0612
M51V	-0.0824
E54D	-0.255
A57M	-0.127
S43L	-0.0725
K34G	-0.135
Q55D	-0.333
Q55Y	-0.202
Q41I	-0.0227
Q41A	-0.163
T37N	-0.0712
A40Y	-0.314
A57R	-0.162
L31H	-0.468
R30G	0.0044
S43W	-0.238
A49L	-0.07
T37A	0.019
A40M	-0.189
A29M	-0.468
A46C	-0.336
E44A	-0.017

Sample 3
Target: RNA binding protein fox-1 homolog 2, RRM domain, GST-SBP tag (RBFOX2, Homo sapiens, UniProt O43251-10, residues 100-194)
Method: RNA Bind-n-Seq
Form: RNA
Matrix: in vitro
Tested at: 365 nM
Notes: natural RNA segment, single round, ends assumed
Relative to: no-protein control
Direction: higher = stronger binding
Constant ends, left off below: GGGAGUUCUACAGUCCGACGAUC … UGGAAUUCUCGGGUGCCAA
Construct (chain): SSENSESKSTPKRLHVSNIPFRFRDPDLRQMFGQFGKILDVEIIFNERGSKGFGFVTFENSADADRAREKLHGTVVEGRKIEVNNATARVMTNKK
Sequence	RBNS enrichment (R)
CCCACUGCUGCUGCCUUUCAUUUAUAAUAAUAGCCCUUCCAUCUGGCAGCAGGAAGAGCGCACUCUCGACAUUCUUGUCUCUGCUUUAGAAUGCUGCUGUGUCUGUCAUG	0.912
GUUAAGUAGUUGUUUUAAAAUACUUAAUAAAAUAAUUCUUUUCCUGUGGAAGAGAAAGAUGGUCUCCUGAGUUUUUUAAAAUAGCUCACUUGGUGUGAUAUGGCUGACUC	0.346
GCCAGGCUCGAAGAAAAUGAUCUGAAUUUCUUCCUCUUUUUGGUUUUAUUUUGUUGGUUUACUUUGUGUUUUCUCCUUUUUGGGGGGUAUUCAGAGUGGGCCGGGCCCCU	0.967
AGACCUGGCUUUCAUGCUUCCUUAGACACGGCCUCCCUCGACUUACUUGCCUUGAAGAAGAAAGGCGCUGACACGCUUAACGCAAACAGAAGGUCCACAAAUAGCAGUUC	0.685
GCUUUCUUUUAUGGUAGACCUGUUAAUGGGGAAAAAAUACAUCAAAUCAAAUAGAAUCUUAUAUCUGUAUGUUAAAAUAGAGCACUUACCUGAAGUCAGUGGCCUGGAUC	0.489
UAUUUUACAUUAAAGCUUAUUUUGGGGAGAUAUGAAGGUCAUCUUCAUAAAUACAUAACAACCCUCAAAAGUAUAUAGGUACUUUGUCUGAGAAACAUUGAAAGCAGGUU	0.408
ACCUAAAUGGACUUGAAAUUGAAGCAGGAAGGUUGGGUUCUCCAUGGAUGGAACUCACCUGCCUGAACUGAGCAGGAAUGUCAGUCUUCCACUGCCCCUCCCUGCCAUCU	0.366
AGCAGAGUCUAUGAUUCCUACUCUUCUACUUCUUGUACUGAUAUAAGGGUUUGUUUUGUUUUGUUUUUUAAAGUAAGGCUGUCUCUCUUUCCCAGUAACAUUCCUGAGUC	0.362
GAAGACGGGUAGGAAGGAUACUAGGUAGGCAGCGUUGCUGAACAAUCUAAGUUGUGGUUCUUAGCCUGUCCCAGGAACAGCAGCAUGGGAGGCUAGGAACUUAACAGAAA	0.836
CAUGUACAGUUUCCUGAAUUGUCACUGUGCAUCCAAACGUAAUGAGUCUAACAGACACUGAUUUCAUGUGCACUCCCCUCUGCUUACAAUGUGCAUUUUUUGGAGGUCAU	0.691
UAUUUCUUCCCUCACUGCUGAUUCUUAGAUAGAAACCAUUCUUUAUAUUUGAUAGACUGCUUUCAGAAAACCCUUAUCAACAAGUGUACAAUACUUAUCUAAAACUAUAC	0.474
AUAAAGGGUUUCCCAAGGGUAGACACCUUGACCAUCCUGAAGUAUGGGUGCUGUACCUGUUCCAGAAGCGAGGACCCAGGUGACAGCCUCACCUUUGCAAAGUUAUAGAG	0.314

Sample 4
Target: CCND2, cyclin fold, Cln2 fusion (human)
Method: yeast growth competition, sequencing
Matrix: yeast
Notes: strong parent motif
Relative to: not given
Direction: higher = stronger binding
Starting sequence: E2F1 docking peptide (human); PPVKRRLDFETDH; partner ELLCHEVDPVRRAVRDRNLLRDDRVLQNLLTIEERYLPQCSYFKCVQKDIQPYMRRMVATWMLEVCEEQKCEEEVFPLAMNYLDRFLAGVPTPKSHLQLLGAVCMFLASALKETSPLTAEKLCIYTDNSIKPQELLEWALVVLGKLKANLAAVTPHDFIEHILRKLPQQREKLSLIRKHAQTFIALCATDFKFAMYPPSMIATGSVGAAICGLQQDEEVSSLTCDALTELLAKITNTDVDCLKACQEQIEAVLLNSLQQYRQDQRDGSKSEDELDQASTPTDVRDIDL
Substitution	normalised enrichment score
R6F	0.819
K4N	1.26
L7I	1.83
V3Y	0.0702
E10F	0.826
K4W	0.463
T11R	1.8
R6A	0.997
L7C	0.587
V3R	0.154
L7H	0.108
V3K	0.794
D8C	2.16
K4T	0.78
P2D	0.943
L7M	0.646
E10Q	1.52
R6K	2.2
F9Q	0.451
P2W	0.67
L7G	-0.299

Some of these lines once more (sample 1):
Sequence	lacZ reporter activity
B7 (RNF43 RING domain)	0
B6 (RNF5 RING domain)	0
B8 (TRIM15 RING domain)	0
B3 (RNF149 RING domain)	0
B9 (RFPL2 RING domain)	0
KRQCSDVDDICSICQAEFQKPILLICQHIFCEECMTLWFNREKTCPLCRTVISDHINKW (RNFT1 RING domain (UniProt Q5M7Z0))	0
B2 (TRIM55 RING domain)	0
B5 (MSL2 RING domain)	0
FLKKLEQSFMCVCCQELVYQPVTTECFHNVCKDCLQRSFKAQVFSCPACRHDLGQNYIMI (UHRF2 RING domain (UniProt Q96PU4))	0
